Measured values pooled from the literature.
Protocols differ between the studies behind these lines. ± marks the error that the study gave.

COc1cccc(OC)c1-c1cc(C(=O)NC2(C(=O)O)C3CC4CC(C3)CC2C4)nn1-c1ccc(C(=O)N(C)CCCN(C)CCCN(C)C(=O)CN2CCN(CC(=O)[O-])CCN(CC(=O)[O-])CCN(CC(=O)[O-])CC2)cc1C(C)C.[177Lu+3] (stereo not drawn) — tumour-to-liver ratio (mouse, HT-29 xenograft; 168 h post injection, biodistribution; relative to: tumour over liver uptake): 11.3
CNC(=O)c1ccc(-c2cnc3ncc(Cc4ccc5ncccc5c4)n3n2)cc1F — patients with adverse event (item: Vomiting; gastric cancer patients; oral, 600 mg twice daily, expansion cohort, grade 3-4): 0%
COc1c(O)cc(C(=O)O)cc1O — AUC (broiler chickens, serum; oral, in feed, 2000 mg/kg feed, corn diet, no tannins): 0.47 ± 0.15 µM·h
CN(CCC#N)C1CCN(C(=O)Cn2cc(NC(=O)c3cnn4cccnc34)c(-c3cc(Cl)ccc3OC(F)F)n2)CC1 — mouthwash deposition (gamma scintigraphy; human; inhalation, 1 mg single dose; relative to: emitted dose): 10.8%
CCC[C@H]1CC[C@H](c2ccc(C#N)cc2)CC1 — median placental accumulation (Sprague-Dawley rat, female, placenta; 1000 ng/mL in perfusate, 50 (unit not given), middle dose, mixture of 21 LCMs): 170 ng/g
[18F]c1ccc(-c2ccc3c(c2)[nH]c2ccncc23)cn1 — uptake (ex vivo biodistribution; B6SJL mouse, normal, urine; intravenous, 30 min): 6.79 ± 2.13 SUV
Cc1cc(NC2CCN(C(=O)OC3CCN(C(=O)/C=C/CN(C)C)C3)CC2)n2ncc(C(C)C)c2n1 (stereo not drawn) — patients with adverse event (Phase I dose escalation CTCAE v4.0, item: decreased appetite; patients with advanced solid tumours; dose not given, QD dosing any grade): 16%
CN1C(=O)[C@@H](NC(=O)c2nnc(Cc3ccccc3)[nH]2)COc2cccnc21 — medical device site reaction incidence (phase I single ascending dose; human, male and female; oral, 100 mg, fasted): 0%
COc1ccc2c(c1)CN(C(=O)CCN1CCC(Cc3ccccc3)CC1)CC[S@@+]2[O-] — QTc interval (telemetry; conscious male beagle dogs; intravenous, 8 mg/kg, 24 h): 237 ± 21 ms
COc1cccc2c1C(=O)c1c(O)c3c(c(O)c1C2=O)C[C@@](O)(C(=O)CO)C[C@@H]3O[C@H]1C[C@H](N)[C@H](O)[C@H](C)O1 — C0 (healthy mouse, plasma; intravenous, 13.3 mg/kg, extrapolated to time zero): 25 µM
COc1c(C)c2c(c(O[C@@H]3O[C@H](C(=O)O)[C@@H](O)[C@H](O)[C@H]3O)c1C/C=C(\C)CCC(=O)O)C(=O)OC2 — half-life, mean (healthy subjects, plasma; oral, 1 g mycophenolate mofetil, added: isavuconazole): 21.5 h
CCCCc1ccc(-c2ccc(C#N)cc2)cc1 — median placental accumulation (Sprague-Dawley rat, female, placenta; 1000 ng/mL in perfusate, 50 (unit not given), middle dose, mixture of 21 LCMs): 8.24 ng/g
CCN1CCN(Cc2ccc(NC(=O)c3ccc(C)c(NC(=O)c4cncc(-c5cccs5)c4)c3)cc2C(F)(F)F)CC1 — extrapolated AUC share (C57BL/6 mice, plasma; intraperitoneal, 30 mg/kg): 14%
O=C(O)CCC(=O)O.[2H]C([2H])([2H])Oc1cc(C)c2[nH]ccc2c1CN1CC[C@@H](C2CC2)C[C@H]1c1ccc(C(=O)O)cc1 — subjects with hyponatraemia (multiple ascending dose; healthy Chinese subjects; 125 mg twice daily): 0%
CC(C)NCCCC[C@@H]1NC(=O)[C@H](Cc2ccc(O)cc2)NC(=O)[C@H](Cc2ccccc2)NC(=O)CC[C@H](C(=O)N[C@@H](CCCCNC(C)C)C(=O)N[C@@H](CCCCNC(=O)[C@H](CCC(=O)O)NC(=O)[C@H](CCC(=O)O)NC(=O)[C@H](CCC(=O)O)NC(=O)CN2CCN(CC(=O)O)CCN(CC(=O)O)CCN(CC(=O)O)CC2)C(N)=O)NC(=O)CNC(=O)[C@H](Cc2ccc3ccccc3c2)NC(=O)[C@@H](CCCNC(=N)N)NC1=O [gallium-68 labelled] — tissue uptake (mouse with JeKo-1 xenograft, kidney; intravenous, 1 h): 3.45 %ID/g
CCOC(=O)c1cnc(Nc2nc3ccccc3o2)nc1CN1CCN(c2ccccc2)CC1 — thermodynamic solubility (aqueous buffer; pH 7.4): < 3.57 µM
N#Cc1ccc2c(c1)[C@H]1CCCN(C(=O)c3ccc4[nH]cnc4c3)[C@H]1C2 — mean ACTH level (human; 80 mg, end of trial): 6.6 pmol/L
Cc1ccc(Sc2ccccc2N2CCNCC2)c(C)c1 — participants with TEAE (item: Dizziness; healthy adult women; oral, 5 mg daily, 12 days): 0%
CNCc1ccc(-c2[nH]c3cc(F)cc4c3c2CCNC4=O)cc1 — patients with adverse event (item: Asthenia/fatigue; human patients; oral, 600 mg twice daily, grade 3): 3.8%
OC[C@H]1O[C@@H](c2ccc(F)c(Cc3cc4ccccc4s3)c2)[C@H](O)[C@@H](O)[C@@H]1O — hypoglycaemia adverse events (Japanese type 1 diabetes patients; oral, 25 mg/day, day 13): 4 % patients
Cc1ccc([C@@H]2O[C@H](CO)[C@@H](O)[C@H](O)[C@H]2O)cc1Cc1ccc(-c2ccc(F)cc2)s1 — urinary phosphate excretion change (item: inorganic phosphorus; Japanese type 2 diabetes patients; 200 mg, day 18, 24 h urine collection; relative to: baseline): 57.9 mg

For quick reference, copied from above:
CC(C)NCCCC[C@@H]1NC(=O)[C@H](Cc2ccc(O)cc2)NC(=O)[C@H](Cc2ccccc2)NC(=O)CC[C@H](C(=O)N[C@@H](CCCCNC(C)C)C(=O)N[C@@H](CCCCNC(=O)[C@H](CCC(=O)O)NC(=O)[C@H](CCC(=O)O)NC(=O)[C@H](CCC(=O)O)NC(=O)CN2CCN(CC(=O)O)CCN(CC(=O)O)CCN(CC(=O)O)CC2)C(N)=O)NC(=O)CNC(=O)[C@H](Cc2ccc3ccccc3c2)NC(=O)[C@@H](CCCNC(=N)N)NC1=O [gallium-68 labelled] — tissue uptake (mouse with JeKo-1 xenograft, kidney; intravenous, 1 h): 3.45 %ID/g
